Measured values collected from several papers.
Lines come from different studies, so protocols differ. “And” joins repeats or separate records; there may be more than shown. ± gives the spread as reported.

For CCCC[C@H](NC(=O)CN1CCC(NC(=O)CN2CCN(CC(=O)O)CCN(CC(=O)O)CCN(CC(=O)O)CC2)CC1)C(=O)N[C@H]1CC(=O)NCCCC[C@@H](C(N)=O)NC(=O)[C@H](Cc2c[nH]c3ccccc23)NC(=O)[C@H](CCCNC(=N)N)NC(=O)[C@@H](Cc2ccccc2)NC(=O)[C@H](Cc2c[nH]cn2)NC1=O [gallium-68 labelled], the tissue uptake was 0.1 %ID/g (C57BL/6J mice male B16-F10 tumour, brain; 1 h post injection, unblocked).
With CC(C)[C@H](NC(=O)[C@@H]1CCCN1C(=O)[C@H](CCCNC(=N)N)NC(=O)[C@H](CS)NC(=O)[C@H](Cc1c[nH]c2ccccc12)NC(=O)[C@H](CCCNC(=N)N)NC(=O)[C@@H](Cc1ccccc1)NC(=O)[C@H](Cc1c[nH]cn1)NC(=O)[C@H](CCC(=O)O)NC(=O)[C@H](CS)NC(=O)[C@H](CS)NC(=O)[C@@H]1CC(=O)N[C@@H](CCCNC(=N)N)C(=O)NCC(=O)N[C@@H](CC(=O)O)C(=O)N[C@H](Cc2ccc(O)cc2)C(=O)N1)C(N)=O [technetium-99m labelled] the tissue uptake was 1.13 ± 0.22 %ID/g (C57 mice B16/F1 melanoma female, lung; iv, 2 h, with: NDP-MSH 10 µg co-injected).
With O=C(NCC1OC2CCC=CCCC2O1)c1ccc([18F])nc1 (stereo not shown) the tissue uptake was 1.36 ± 0.28 %ID/g (ex vivo biodistribution; BALB/c nude mice, female, LS174T xenograft, tumour; intravenous, 7.4 MBq, 60 min, pretargeting, with: CC49-tetrazine conjugate 24 h before).
For CCCC[C@H](NC(=O)CNC(=O)CNC(=O)CN1CCN(CC(=O)O)CCN(CC(=O)O)CC1)C(=O)N[C@H]1CC(=O)NCCCC[C@@H](C(N)=O)NC(=O)[C@H](Cc2c[nH]c3ccccc23)NC(=O)[C@H](CCCNC(=N)N)NC(=O)[C@@H](Cc2ccccc2)NC(=O)[C@H](Cc2c[nH]cn2)NC1=O [gallium-67 labelled], the tissue uptake was 0.45 ± 0.09 %ID/g (female C57 mice, B16/F1 melanoma, heart; intravenous, 0.037 MBq, 2 h).
The tissue uptake of CCCC[C@@H]1NC(=O)[C@@H](NC(=O)[C@H](CCC(=O)O)NC(=O)CNC(=O)CN2CCN(CC(=O)O)CCN(CC(=O)O)CCN(CC(=O)O)CC2)CCCCNC(=O)C[C@@H](C(N)=O)NC(=O)[C@H](C(C)C)NC(=O)[C@@H]2CCCN2C(=O)[C@H](CCCNC(=N)N)NC(=O)CNC(=O)[C@H](Cc2c[nH]c3ccccc23)NC(=O)[C@H](CCCNC(=N)N)NC(=O)[C@@H](Cc2ccccc2)NC(=O)[C@H](Cc2c[nH]cn2)NC(=O)[C@H](CCC(=O)O)NC1=O [gallium-67 labelled] is reported as 22.8 ± 4.32 %ID/g (C57 mice, B16/F1 flank melanoma, kidneys; intravenous, 2 h, with: blocking peptide 10 µg).
O=C([O-])c1cccc(CN(CCN(Cc2cn(Cc3ccccc3)nn2)Cc2cccc(C(=O)[O-])n2)Cc2cn(Cc3ccccc3)nn2)n1.[64Cu+2] has a tissue uptake of 2.11 %ID/g (healthy athymic nude mice, large intestine; intravenous, 1 h).
For CCCC[C@H](NC(=O)CNC(=O)CNC(=O)CN1CCN(CC(=O)O)CCN(CC(=O)O)CCN(CC(=O)O)CC1)C(=O)N[C@H]1CC(=O)NCCCC[C@@H](C(N)=O)NC(=O)[C@H](Cc2c[nH]c3ccccc23)NC(=O)[C@H](CCCNC(=N)N)NC(=O)[C@@H](Cc2ccccc2)NC(=O)[C@H](Cc2c[nH]cn2)NC1=O [gallium-67 labelled], the tissue uptake was 27 ± 3.82 %ID/g (female C57 mice, B16/F1 melanoma, tumor; intravenous, 0.037 MBq, 0.5 h).
With O=C([O-])CN1CCN(CC(=O)[O-])CCN(CC(=O)[O-])CCN(CC(=O)[O-])CC1.[64Cu+2] the tissue uptake was 0.42 %ID/g (healthy athymic nude mice, large intestine; intravenous, 15 min).
The tissue uptake of N=C(N)NCCC[C@@H]1NC(=O)[C@H](CCCCNC(=O)CON=C[C@H](F)[C@@H](O)[C@H](O)[C@H](O)CO)NC(=O)[C@@H](Cc2ccc(O)cc2)NC(=O)[C@H](CC(=O)O)NC(=O)CNC1=O [fluorine-18 labelled] is reported as 2.57 ± 2.53 %ID/g (nude mice U-87 MG tumour, heart; intravenous, 2 h).
With CN1C(=O)[C@@H](Cc2ccc(O)c(I)c2)NC(=O)CNC(=O)[C@H](Cc2ccc3ccccc3c2)NC(=O)[C@H](CCCNC(=N)N)NC(=O)[C@H]1CCCNC(=O)c1ccc(CNC(=O)CN2CCN(CC(=O)O)CCN(CC(=O)O)CCN(CC(=O)O)CC2)cc1 [lutetium-177 labelled] the tissue uptake was 2.5 ± 0.7 %ID/g (refers to: 177Lu radioactivity; female CB-17 SCID mice, Daudi xenograft, lung; intravenous, 0.16 nmol per mouse, 1 h).
NC12CNCCNCC(NCc3ccc(CNC(=O)CCCC(=O)NCc4ccc(-c5nncnn5)cc4)cc3)(CNCCNC1)CNCCNC2.[64Cu+2] gave a tissue uptake of 5.6 %ID/g and 5.63 %ID/g (athymic nude mice SW1222 xenograft, tumor; 1 h post injection, 24 h accumulation interval, with: huA33-TCO pretargeting).
For O=C([O-])CN1CCN(CC(=O)[O-])CCN(CC(=O)NCCc2ccc3c(c2)C2C=CCC2C(c2cc4c(cc2Br)OCO4)N3)CCN(CC(=O)[O-])CC1.[111In+3] (stereo not shown), the tissue uptake was 0.04 ± 0.03 %ID/g (mice with Hec50 tumour xenograft, pituitary; 2 h).
N=C(N)NCCC[C@H](NC(=O)CON=C[C@H](F)[C@@H](O)[C@H](O)[C@H](O)CO)C(=O)NCC(=O)N[C@@H](CC(=O)O)C(=O)O [fluorine-18 labelled] gave a tissue uptake of 0.16 ± 0.02 %ID/g (nude mice U-87 MG tumour, brain; intravenous, 2 h).

A few entries again:
For O=C([O-])CN1CCN(CC(=O)[O-])CCN(CC(=O)NCCc2ccc3c(c2)C2C=CCC2C(c2cc4c(cc2Br)OCO4)N3)CCN(CC(=O)[O-])CC1.[111In+3] (stereo not shown), the tissue uptake was 0.04 ± 0.03 %ID/g (mice with Hec50 tumour xenograft, pituitary; 2 h).
N=C(N)NCCC[C@H](NC(=O)CON=C[C@H](F)[C@@H](O)[C@H](O)[C@H](O)CO)C(=O)NCC(=O)N[C@@H](CC(=O)O)C(=O)O [fluorine-18 labelled] gave a tissue uptake of 0.16 ± 0.02 %ID/g (nude mice U-87 MG tumour, brain; intravenous, 2 h).
